Assay results collected from several papers.
Numbered parts are unrelated; each lists some results of a single study. Positions count from the first letter of the parent shown.

Study 1 — method: DHFR PCA, deep sequencing; sample: yeast; added: (+)-ABA 1.4 µM; relative to: wild-type fitted maximum; direction: higher = stronger binding
Target: ABI1, truncated, D143A, DHFR fusion (Arabidopsis thaliana)
Notes: methotrexate growth selection, single substitutions
Parent: PYL1, truncated, DHFR fusion (Arabidopsis thaliana); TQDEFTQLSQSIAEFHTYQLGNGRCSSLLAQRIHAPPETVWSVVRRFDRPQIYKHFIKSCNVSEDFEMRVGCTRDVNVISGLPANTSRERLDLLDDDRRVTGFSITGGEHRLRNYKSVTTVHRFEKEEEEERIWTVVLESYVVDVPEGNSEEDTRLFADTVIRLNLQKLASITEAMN
Under “relative binding score”, `G23F` is recorded as 6.06%.
For `S80V`, “relative binding score” read -3.74%.
For `T106D`, “relative binding score” read 6.79%.
`R123L` — result for “relative binding score”: 30.8%.
`R45H` — result for “relative binding score”: 6.15%.

Study 2 — method: protein-binding microarray; molecule type: double-stranded DNA, one strand shown; sample: in vitro; tested at: 2200 nM top; notes: 60-bp whole probe; added: salmon DNA 0.4 mg/ml; relative to: random background probes; direction: higher = stronger binding; all sequences stand within: GCCTAGCAC … GTCTTGATTCGCTTGACGCTGCTG
Target: Interferon regulatory factor 7, full length, phosphomimetic (IRF7, Homo sapiens, UniProt Q92985, residues 1-503, S471D/S472D/S475D/S476D/S477D/S483D/S484D/S487D)
Construct (chain): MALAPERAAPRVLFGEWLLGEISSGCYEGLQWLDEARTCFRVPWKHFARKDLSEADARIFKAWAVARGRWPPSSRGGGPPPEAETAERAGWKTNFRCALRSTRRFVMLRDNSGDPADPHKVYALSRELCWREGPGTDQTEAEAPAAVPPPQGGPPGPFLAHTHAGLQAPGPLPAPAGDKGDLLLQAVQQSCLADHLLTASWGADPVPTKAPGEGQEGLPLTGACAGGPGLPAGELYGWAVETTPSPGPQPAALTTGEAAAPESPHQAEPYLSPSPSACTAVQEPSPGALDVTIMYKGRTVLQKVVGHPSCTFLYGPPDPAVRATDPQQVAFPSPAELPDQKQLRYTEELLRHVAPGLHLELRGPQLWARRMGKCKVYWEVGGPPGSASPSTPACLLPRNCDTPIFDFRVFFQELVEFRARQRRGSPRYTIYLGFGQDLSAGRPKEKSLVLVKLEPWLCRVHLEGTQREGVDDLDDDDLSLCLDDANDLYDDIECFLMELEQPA
`GTAGGTCTCGGTCTCGGTTAGTGCTAG` — result for “fitted relative affinity”: 0.534 z-score.
`GACGGACTGGTGTATCGGGACGTGCTA` — result for “fitted relative affinity”: -0.895 z-score.
For `GACGATATTGGGTATCGAGACGTGCTA`, “fitted relative affinity” read 0.174 z-score.
`TCAGTTCTCCCTTTCAGACTGTGCTAG` — result for “fitted relative affinity”: 2.75 z-score.
Under “fitted relative affinity”, `ATGGCAAAAAAAAAAGATTTGTGCTAG` is recorded as -1.79 z-score.
For `GTAGGTCTCGGACTGGGTTAGTGCTAG`, “fitted relative affinity” read -0.364 z-score.
For `GATGATATCAGTCTCGAGACGTGCTAG`, “fitted relative affinity” read 0.598 z-score.

Study 3 — target: CCNA1, cyclin fold, Cln2 fusion (human); method: yeast growth competition, sequencing; sample: yeast; notes: weak parent motif; relative to: not given; direction: higher = stronger binding
Parent: WEE1 docking peptide (human); HKTFRKLRLFDTP; partner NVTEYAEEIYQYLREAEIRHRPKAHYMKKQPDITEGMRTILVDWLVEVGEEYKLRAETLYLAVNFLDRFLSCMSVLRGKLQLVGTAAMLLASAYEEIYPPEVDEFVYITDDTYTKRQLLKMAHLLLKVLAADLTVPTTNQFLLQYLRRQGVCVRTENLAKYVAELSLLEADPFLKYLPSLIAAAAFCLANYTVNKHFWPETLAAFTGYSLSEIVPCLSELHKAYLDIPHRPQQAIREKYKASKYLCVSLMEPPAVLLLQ
`HKTRRKLRLFDTP [F4R]` — result for “normalised enrichment score”: 0.338.
`HKTIRKLRLFDTP [F4I]` — result for “normalised enrichment score”: 0.274.
`HKQFRKLRLFDTP [T3Q]` — result for “normalised enrichment score”: 0.0597.
`PKTFRKLRLFDTP [H1P]`: “normalised enrichment score” 0.14.
Under “normalised enrichment score”, `HKTFGKLRLFDTP [R5G]` is recorded as -0.247.

Single results of other studies
`PhoQ, residues 284 288 289 292 302 303 ALAMYF` has a fold induction of 1.22 (PhoP, residues 12 14 15 18 19 DLLYY (Escherichia coli, UniProt P23836); Sort-seq, measured: YFP reporter; E. coli; PhoQ-PhoP variant library, added: 10 µM Mg2+; relative to: high Mg2+ state, higher = stronger signaling).

A few entries again (study 3):
`HKTIRKLRLFDTP [F4I]` — result for “normalised enrichment score”: 0.274.
`HKQFRKLRLFDTP [T3Q]` — result for “normalised enrichment score”: 0.0597.
